Results of several laboratories.
Lines come from different studies, so protocols differ. ≈ marks a conversion by molar mass, not a printed value.
Organism: Acinetobacter baumannii

SMILES	assay	test system	setting	measurement	result
Cn1c(=O)cnc2ccc(F)c(CCNC[C@H]3CN(c4cnc5c(n4)NC(=O)CO5)C(=O)O3)c21	–	ATCC 19606	–	MIC	0.25 µg/mL
CC[C@H](C)[C@H](NC(=O)CNC(=O)[C@H](CCCNC(=N)N)NC(=O)[C@H](Cc1ccccc1)NC(=O)[C@@H](NC(=O)[C@H](Cc1c[nH]cn1)NC(=O)[C@H](Cc1c[nH]cn1)NC(=O)[C@H](Cc1ccccc1)NC(=O)[C@@H](N)Cc1ccccc1)[C@@H](C)CC)C(=O)N[C@H](C(=O)N[C@@H](Cc1c[nH]cn1)C(=O)N[C@H](C(=O)NCC(=O)N[C@@H](CCCCN)C(=O)N[C@H](C(=O)N[C@@H](CCCCN)C(=O)N[C@@H](Cc1c[nH]cn1)C(=O)N[C@@H](CCCNC(=N)N)C(=O)N[C@@H](CC(C)C)C(=O)N[C@H](C(=O)N[C@H](C(=O)NCC(N)=O)[C@@H](C)O)C(C)C)[C@@H](C)O)C(C)C)C(C)C	–	colistin-resistant clinical	18 h, 37 °C	MIC	3.1 µg/mL
C[C@@H](O)[C@H]1C(=O)N2C(C(=O)O)=C(SCCN=CN)C[C@H]12	broth microdilution	ATCC 17978 pET-RA-KmR OXA-24/40	without inhibitor	MIC	64 µg/mL
CC(C)C[C@H](NC(=O)[C@H](CCCCN)NC(=O)[C@H](CCCNC(=N)N)NC(=O)[C@@H](NC(=O)[C@H](CCCCN)NC(=O)[C@H](CCCCN)NC(=O)[C@@H](NC(=O)[C@H](Cc1ccccc1)NC(=O)[C@H](CCCNC(=N)N)NC(=O)[C@@H](N)CCCNC(=N)N)C(C)C)C(C)C)C(=O)N[C@H](C(=O)N[C@@H](CCCCN)C(=O)O)C(C)C	bacterial killing, colony count	ATCC 17978	1 h, pH 7, 37 °C	EC50	5.9 µg/mL (≈ 3.79 µM)
CC[C@H](C)[C@H](NC(=O)CNC(=O)[C@H](CCCNC(=N)N)NC(=O)[C@H](Cc1ccccc1)NC(=O)[C@@H](NC(=O)[C@H](Cc1c[nH]cn1)NC(=O)[C@H](Cc1c[nH]cn1)NC(=O)[C@H](Cc1ccccc1)NC(=O)[C@@H](N)Cc1ccccc1)[C@@H](C)CC)C(=O)N[C@H](C(=O)N[C@@H](Cc1c[nH]cn1)C(=O)N[C@H](C(=O)NCC(=O)N[C@@H](CCCCN)C(=O)N[C@H](C(=O)N[C@@H](C)C(=O)N[C@@H](Cc1c[nH]cn1)C(=O)N[C@@H](CCCNC(=N)N)C(=O)N[C@@H](CC(C)C)C(=O)N[C@H](C(=O)N[C@H](C(=O)NCC(N)=O)[C@@H](C)O)C(C)C)[C@@H](C)O)C(C)C)C(C)C	–	colistin-resistant clinical	18 h, 37 °C	MIC	3.1 µg/mL
CC(C)C[C@H](NC(=O)[C@H](Cc1c[nH]c2ccccc12)NC(=O)[C@H](CCCNC(=N)N)NC(=O)[C@@H](N)Cc1ccccc1)C(=O)N[C@@H](CCCNC(=N)N)C(=O)N[C@@H](CCCCN)C(=O)N[C@@H](Cc1c[nH]c2ccccc12)C(=O)N[C@@H](Cc1ccccc1)C(=O)N[C@@H](CCCNC(=N)N)C(=O)N[C@@H](CCCNC(=N)N)C(=O)O	bacterial killing, colony count	ATCC 17978	1 h, pH 7, 37 °C	EC50	1.8 µg/mL (≈ 1.16 µM)
CC[C@H](C)[C@H](NC(=O)[C@H](Cc1ccccc1)NC(=O)[C@H](CC(=O)O)NC(=O)[C@H](CCCCN)NC(=O)[C@H](C)NC(=O)[C@H](CCCCN)NC(=O)[C@H](CC(N)=O)NC(=O)[C@H](CC(C)C)NC(=O)[C@H](Cc1c[nH]c2ccccc12)NC(=O)[C@H](CCC(=O)O)NC(=O)[C@H](CCCCN)NC(=O)[C@@H](NC(=O)CNC(=O)[C@H](C)N)[C@@H](C)O)C(=O)N[C@@H](CCCCN)C(=O)N[C@@H](CCC(=O)O)C(=O)N[C@@H](CCCCN)C(=O)NCC(=O)N[C@@H](CC(C)C)C(=O)NCC(=O)N[C@@H](CCSC)C(=O)N[C@@H](CC(C)C)C(=O)N[C@@H](CO)C(=O)N[C@@H](C)C(=O)N[C@@H](C)C(=O)N[C@@H](C)C(=O)N[C@@H](CC(N)=O)C(=O)N[C@@H](C)C(=O)N[C@@H](C)C(=O)N[C@@H](CC(C)C)C(=O)N[C@@H](CC(N)=O)C(=O)O	broth microdilution	ATCC 19606	20 h, 37 °C	MIC	> 40 µM
CC(C)C[C@H](NC(=O)[C@H](CCCCN)NC(=O)[C@H](CCCCN)NC(=O)[C@H](CC(C)C)NC(=O)[C@H](CCCCN)NC(=O)[C@@H](N)CCCNC(=N)N)C(=O)N[C@@H](Cc1c[nH]c2ccccc12)C(=O)N[C@@H](CCCNC(=N)N)C(=O)N[C@@H](CCCCN)C(=O)N[C@@H](Cc1ccccc1)C(=O)N[C@@H](CCCNC(=N)N)C(=O)O	bacterial killing, colony count	ATCC 17978	1 h, pH 7, 37 °C	EC50	3.1 µg/mL (≈ 1.99 µM)
CC[C@H](C)[C@H](NC(=O)[C@H](Cc1c[nH]cn1)NC(=O)[C@H](Cc1c[nH]cn1)NC(=O)[C@H](Cc1ccccc1)NC(=O)[C@@H](N)Cc1ccccc1)C(=O)N[C@@H](Cc1ccccc1)C(=O)N[C@@H](CCCNC(=N)N)C(=O)NCC(=O)N[C@@H](CCCCN)C(=O)N[C@H](C(=O)N[C@@H](Cc1c[nH]cn1)C(=O)N[C@H](C(=O)NCC(=O)N[C@@H](CCCCN)C(=O)N[C@H](C(=O)N[C@H](C(=O)N[C@@H](Cc1c[nH]cn1)C(=O)N[C@@H](CCCNC(=N)N)C(=O)N[C@@H](CC(C)C)C(=O)N[C@H](C(=O)N[C@H](C(=O)NCC(N)=O)[C@@H](C)O)C(C)C)[C@@H](C)CC)[C@@H](C)O)C(C)C)C(C)C	–	colistin-resistant clinical	18 h, 37 °C	MIC	3.1 µg/mL
CC[C@H](C)CCCCC(=O)N[C@@H](CCN)C(=O)N[C@H](C(=O)N[C@@H](CCN)C(=O)N[C@H]1CCNC(=O)[C@H]([C@@H](C)O)NC(=O)[C@H](CCN)NC(=O)[C@H](CCN)NC(=O)[C@H](CC(C)C)NC(=O)[C@@H](CC(C)C)NC(=O)[C@H](CCN)NC1=O)[C@@H](C)O	broth microdilution	ATCC 19606	20 h, 37 °C	MIC	0.11 µM

Some of these lines once more:
SMILES	assay	test system	setting	measurement	result
CC[C@H](C)[C@H](NC(=O)[C@H](Cc1ccccc1)NC(=O)[C@H](CC(=O)O)NC(=O)[C@H](CCCCN)NC(=O)[C@H](C)NC(=O)[C@H](CCCCN)NC(=O)[C@H](CC(N)=O)NC(=O)[C@H](CC(C)C)NC(=O)[C@H](Cc1c[nH]c2ccccc12)NC(=O)[C@H](CCC(=O)O)NC(=O)[C@H](CCCCN)NC(=O)[C@@H](NC(=O)CNC(=O)[C@H](C)N)[C@@H](C)O)C(=O)N[C@@H](CCCCN)C(=O)N[C@@H](CCC(=O)O)C(=O)N[C@@H](CCCCN)C(=O)NCC(=O)N[C@@H](CC(C)C)C(=O)NCC(=O)N[C@@H](CCSC)C(=O)N[C@@H](CC(C)C)C(=O)N[C@@H](CO)C(=O)N[C@@H](C)C(=O)N[C@@H](C)C(=O)N[C@@H](C)C(=O)N[C@@H](CC(N)=O)C(=O)N[C@@H](C)C(=O)N[C@@H](C)C(=O)N[C@@H](CC(C)C)C(=O)N[C@@H](CC(N)=O)C(=O)O	broth microdilution	ATCC 19606	20 h, 37 °C	MIC	> 40 µM
